Published values from different studies.
Each line is one published result; not all experiments were run side by side.
Target: Myosin-IIIa (MYO3A, Homo sapiens, UniProt Q8NEV4)

CNC1C[S+]2CC[S+]3CC[S+](C1)[Ru-4]321([N]=C=S)[n]2c3ccc(OC)cc3c3c4c(c5cc(F)c[n+]1c5c32)C(=O)NC4=O (stereo not drawn)  remaining binding (KinomeScan; 0.1 µM; baseline: untreated): 92%
COc1cc(Nc2nc(C)cc(-c3cnn4nc(OC)ccc34)n2)cc(C(F)(F)F)c1  remaining activity (inhibitor; 1 µM; baseline: control): 87%
Nc1ncc2c(n1)-c1c([nH]c3ccc(C4=CCOCC4)cc13)CCC2  remaining binding (binding, competition with immobilised ligand; 1 µM): 88%
C=CC(=O)N1CCc2ccc(-n3c(=O)ccc4cnc5ccc(-c6cnn(C)c6)cc5c43)cc21  remaining binding (KINOMEscan; 1 µM; baseline: DMSO control): 100%
COc1c(Cl)cccc1Nc1c(-c2ccncc2C#C[C@@]2(C)CCCN2C(=O)/C=C/CN(C)C)[nH]c2c1C(=O)NCC2  remaining binding (binding, competition with immobilised ligand; 3 µM): 92%
Nc1ncc(-c2cc(-c3cnn(CC(F)(F)F)c3)ncc2F)nc1C(=O)NC1CNCC(F)C1 (stereo not drawn)  remaining activity (enzyme activity; 1 µM; baseline: DMSO control): 79.9%
C=CC(=O)N1Cc2nc(-c3cc(-c4cc(Cl)cnc4Cl)c(F)cc3F)n(-c3ccncn3)c2C1  inhibition (cell-free assay; 1 µM): 6%
CNC(=O)C1CCN(c2cc(C)c(F)cc2NC(=O)c2ccc(-c3cc(O)ccc3C)c(C)c2)CC1  remaining binding (binding, competition with immobilised ligand; 1 µM): 100%
C=CC(=O)N1CCCC(n2c(=O)c3ncccc3n(Cc3ccc(Oc4ccccc4)cc3)c2=O)C1 (stereo not drawn)  remaining binding (cell-free assay, competition with immobilised ligand; 1 µM): 100%
Cc1cnc2nc1Nc1cccc(c1)COC/C=C/COCc1cc(ccc1OCCN1CCOCC1)N2  remaining binding (binding; 0.1 µM): 95%
CN1CCN(Cc2ccc(-c3ccc(CO[C@H]4CCC[C@@H]4NC(=O)c4cc(-c5cnn(C)c5)cnc4N)cc3)cc2)CC1  inhibition (enzyme activity, inhibitor; 0.1 µM): -2%
CCn1cc(C(=O)O)c(=O)c2c(N)c(F)c(NC3CCCCC3)cc21  inhibition (kinase activity; 0.1 µM, together with: ATP at Km): 12.8%
CC(C)=CC1OC(C)(C)C2C=C3C(=O)C(Cl)=CC(O)C3C3C(O)C4OC4C(=O)C132 (stereo not drawn)  remaining binding (cell-free assay, competition with immobilised ligand; 10 µM): 84%
CCN1CCN(Cc2ccc(C(=O)Nc3ccc(C)c(NCc4cnc5[nH]ccc5c4OC)c3)cc2C(F)(F)F)CC1  remaining binding (binding, competition with immobilised ligand; 1 µM): 41%
COc1cc(Nc2nccc(-c3cnn4nc(OC)ccc34)n2)cc(C(F)(F)F)c1  remaining binding (binding, competition with immobilised ligand; 1 µM): 54%

A few entries again:
COc1c(Cl)cccc1Nc1c(-c2ccncc2C#C[C@@]2(C)CCCN2C(=O)/C=C/CN(C)C)[nH]c2c1C(=O)NCC2  remaining binding (binding, competition with immobilised ligand; 3 µM): 92%
